Measurements of several laboratories.
Every numbered part comes from another study and shows a few of its results, in no order.

Block 1
Target: Centromere-binding protein 1, full length, His-tagged (CBF1, Saccharomyces cerevisiae, UniProt P17106, residues 1-351)
UniProt P17106, sequence (whole entry, looked up): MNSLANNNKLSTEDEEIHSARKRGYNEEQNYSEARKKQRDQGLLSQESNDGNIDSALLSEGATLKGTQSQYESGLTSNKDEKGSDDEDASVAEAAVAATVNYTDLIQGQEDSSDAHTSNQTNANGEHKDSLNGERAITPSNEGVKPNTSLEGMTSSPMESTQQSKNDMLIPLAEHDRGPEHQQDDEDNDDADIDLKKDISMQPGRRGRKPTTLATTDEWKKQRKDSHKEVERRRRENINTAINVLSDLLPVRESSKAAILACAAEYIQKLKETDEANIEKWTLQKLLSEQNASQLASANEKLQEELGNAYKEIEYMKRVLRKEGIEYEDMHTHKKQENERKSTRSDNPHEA
Method: competition protein-binding microarray
Molecule type: double-stranded DNA, one strand shown
Matrix: in vitro
Tested at: 2 µM
Setting: whole 60-bp probe, lowest competitor level
With: Pho4 competitor, 0.05 µM
Reading: higher = stronger binding
`GTCTTGTCTCATTTTCACGTGTTATTCCCCACTTCAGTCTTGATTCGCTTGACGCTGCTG` has a fluorescence intensity of 943 a.u.
`CTAACGAAGGTTTTTCACGTGCGTTACAAGCCAAGTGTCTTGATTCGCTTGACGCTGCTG` gave a fluorescence intensity of 732 a.u.
With `ACTACTAGCCCTCCACACGTTCGAGGCCAGGTTGATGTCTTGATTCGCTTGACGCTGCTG` the fluorescence intensity was 66 a.u.
The fluorescence intensity of `TCTCTCTGCTGATTGGACGTGGGTACGTACTATTTCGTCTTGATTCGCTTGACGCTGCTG` is reported as 67.1 a.u.
With `TCTGGCTTGCGCGGCCTCGTGCCAGTAAGTAGAAAAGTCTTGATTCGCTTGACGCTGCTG` the fluorescence intensity was 89.3 a.u.
With `ATGCCCTGCTATCTTCACGTGGTCGAATAGCTTATTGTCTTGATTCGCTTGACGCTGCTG` the fluorescence intensity was 1330 a.u.
`CATACCCAACCTTGCATTGTGGGTGAAGATATTTGTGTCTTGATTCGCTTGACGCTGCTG` gave a fluorescence intensity of 83.5 a.u.
The fluorescence intensity of `CCGTCAACGGTCAAGCCCGTGACAAAGCCACAATGAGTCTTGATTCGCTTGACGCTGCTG` is reported as 163 a.u.
`TTGCTGGATTCTTATCAGGTGTGGCAGTATGTCCCCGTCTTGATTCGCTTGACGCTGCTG` has a fluorescence intensity of 92.6 a.u.
`TGCTAGAATACATCGCACGGCTCGCGGAAAGCAACCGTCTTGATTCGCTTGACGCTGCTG` gave a fluorescence intensity of 56.6 a.u.
For `TGCGCAACAACTTGTCACATCACTTTATGTCTAGAAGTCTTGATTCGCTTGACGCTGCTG`, the fluorescence intensity was 87.6 a.u.

Block 2
Substance: PhoQ, residues 284 288 289 292 302 303 SIHMAM
Method: Sort-seq
Refers to: YFP reporter
Matrix: E. coli
Setting: PhoQ-PhoP variant library
With: 10 µM Mg2+
Relative to: high Mg2+ state
Reading: higher = stronger signaling
For PhoP, residues 12 14 15 18 19 VGHWL (Escherichia coli, UniProt P23836): fold induction read 17.8.
The fold induction was 14.1 (PhoP, residues 12 14 15 18 19 NFFVT (Escherichia coli, UniProt P23836)).
The fold induction was 1.74 (PhoP, residues 12 14 15 18 19 TPWTL (Escherichia coli, UniProt P23836)).
It gave 0.197 for fold induction (PhoP, residues 12 14 15 18 19 LHHYF (Escherichia coli, UniProt P23836)).

Block 3
Target: Interferon regulatory factor 5, full length, phosphomimetic (IRF5, Homo sapiens, UniProt Q13568-2, residues 1-514, S451D/S453D/S456D/S462D)
Method: protein-binding microarray
Molecule type: double-stranded DNA, one strand shown
Matrix: in vitro
Tested at: 940 nM top
Setting: 60-bp whole probe
With: salmon DNA 0.4 mg/ml
Relative to: random background probes
Reading: higher = stronger binding
All sequences stand within: GCCTAGCAC … GTCTTGATTCGCTTGACGCTGCTG
`TCCTCTTTCTCTGCTACCCTTGTGCTA`: “fitted relative affinity” 2.34 z-score.
`AACCATTTTGTTTTTCATTAGTGCTAG`: “fitted relative affinity” 1.35 z-score.
For `TTTTTTTTTTTTTTGTATTTGTGCTAG`, “fitted relative affinity” read 1.34 z-score.
`CTGTTAAAGAATTAAGAAGGGTGCTAG`: “fitted relative affinity” -0.555 z-score.
For `GACGATTTCGGGACTAGAGACGTGCTA`, “fitted relative affinity” read -0.0473 z-score.
Under “fitted relative affinity”, `TTAGAACAGGGGTTTCGATTAGTGCTA` is recorded as 5.15 z-score.
`TACGGTTCCCTTTTCCTGACGTGCTAG` — result for “fitted relative affinity”: 0.812 z-score.
Under “fitted relative affinity”, `GACGGTATCGTGTTTCGGGACGTGCTA` is recorded as 2.62 z-score.
`ACTAATTTTCAATTCCTGAAGTGCTAG` — result for “fitted relative affinity”: 0.492 z-score.
For `CCTAGCCTCCCAGCCCAGCAGTGCTAG`, “fitted relative affinity” read 0.325 z-score.

Block 4
Target: Histone acetyltransferase KAT6A, winged helix 1, GST fusion (KAT6A, Homo sapiens, UniProt Q92794, residues 1-85)
Method: protein binding microarray
Molecule type: double-stranded DNA, one strand shown
Matrix: in vitro
Tested at: not given
Setting: 8-mer, flanks averaged, mean of 2 arrays, mostly near background
Relative to: not given
Reading: higher = stronger binding
Construct (chain): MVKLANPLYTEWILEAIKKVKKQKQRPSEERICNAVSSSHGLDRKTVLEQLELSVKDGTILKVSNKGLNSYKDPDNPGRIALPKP
With `CCCGGTGC` the E-score was 0.245.
`AAACTATG` has an E-score of -0.176.
The E-score of `AAAAGTAC` is reported as 0.0785.
`AACGTCAT` gave an E-score of 0.0487.
`AGCGGACA` gave an E-score of 0.256.
With `AACCCAAA` the E-score was -0.14.
For `GCACGGGC`, the E-score was 0.287.
`GCAGCGAA` has an E-score of 0.0276.
`GATGTAAC` gave an E-score of 0.0976.
For `ATAGATGC`, the E-score was 0.0228.
`GGCGCCCA` gave an E-score of 0.16.
For `AGACATCG`, the E-score was -0.141.
For `AGCTAGAG`, the E-score was -0.0731.

Some of these lines once more (block 1):
The fluorescence intensity of `TCTCTCTGCTGATTGGACGTGGGTACGTACTATTTCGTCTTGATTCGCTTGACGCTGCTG` is reported as 67.1 a.u.
With `TCTGGCTTGCGCGGCCTCGTGCCAGTAAGTAGAAAAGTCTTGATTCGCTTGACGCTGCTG` the fluorescence intensity was 89.3 a.u.
With `ATGCCCTGCTATCTTCACGTGGTCGAATAGCTTATTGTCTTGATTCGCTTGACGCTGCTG` the fluorescence intensity was 1330 a.u.
`CATACCCAACCTTGCATTGTGGGTGAAGATATTTGTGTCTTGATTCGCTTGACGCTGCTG` gave a fluorescence intensity of 83.5 a.u.
The fluorescence intensity of `CCGTCAACGGTCAAGCCCGTGACAAAGCCACAATGAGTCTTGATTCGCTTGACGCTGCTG` is reported as 163 a.u.
